Experimental data pooled from the literature.
Lines come from different studies, so protocols differ.
B1: IgG 15884 anti-Nsp12 IgG; V domains shown; VH EVQLVESGGGLVQPGGSLRLSCAASGFNIYYYSMHWVRQAPGKGLEWVASIYSYYGYTSYADSVKGRFTISADTSKNTAYLQMNSLRAEDTAVYYCARHPAYGGMDYWGQGTLVTVSS; VL DIQMTQSPSSLSASVGDRVTITCRASQSVSSAVAWYQQKPGKAPKLLIYSASSLYSGVPSRFSGSRSGTDFTLTISSLQPEDFATYYCQQSHWHPITFGQGTKVEIK
B2: hisG (Mycobacterium tuberculosis, UniProt P9WMN1); chain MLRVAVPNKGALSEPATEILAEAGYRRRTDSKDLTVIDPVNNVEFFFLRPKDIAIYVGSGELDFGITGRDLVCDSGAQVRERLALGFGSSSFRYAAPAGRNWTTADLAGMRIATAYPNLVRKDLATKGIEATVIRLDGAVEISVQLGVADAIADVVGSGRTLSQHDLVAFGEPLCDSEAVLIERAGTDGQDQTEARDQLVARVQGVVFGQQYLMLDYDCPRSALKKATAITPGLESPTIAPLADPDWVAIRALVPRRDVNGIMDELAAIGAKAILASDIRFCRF
Chain of UniProt Q9HUM0 (whole entry, looked up): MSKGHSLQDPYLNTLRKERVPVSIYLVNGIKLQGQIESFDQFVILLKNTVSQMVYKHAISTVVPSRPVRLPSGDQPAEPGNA
Chain of UniProt Q2KS03 (whole entry, looked up): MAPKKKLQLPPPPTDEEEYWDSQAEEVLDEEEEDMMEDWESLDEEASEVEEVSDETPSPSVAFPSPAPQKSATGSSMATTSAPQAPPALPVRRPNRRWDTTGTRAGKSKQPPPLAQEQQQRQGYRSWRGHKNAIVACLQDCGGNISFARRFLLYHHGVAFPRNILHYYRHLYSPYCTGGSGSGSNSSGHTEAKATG
Chain of UniProt P16727 (whole entry, looked up): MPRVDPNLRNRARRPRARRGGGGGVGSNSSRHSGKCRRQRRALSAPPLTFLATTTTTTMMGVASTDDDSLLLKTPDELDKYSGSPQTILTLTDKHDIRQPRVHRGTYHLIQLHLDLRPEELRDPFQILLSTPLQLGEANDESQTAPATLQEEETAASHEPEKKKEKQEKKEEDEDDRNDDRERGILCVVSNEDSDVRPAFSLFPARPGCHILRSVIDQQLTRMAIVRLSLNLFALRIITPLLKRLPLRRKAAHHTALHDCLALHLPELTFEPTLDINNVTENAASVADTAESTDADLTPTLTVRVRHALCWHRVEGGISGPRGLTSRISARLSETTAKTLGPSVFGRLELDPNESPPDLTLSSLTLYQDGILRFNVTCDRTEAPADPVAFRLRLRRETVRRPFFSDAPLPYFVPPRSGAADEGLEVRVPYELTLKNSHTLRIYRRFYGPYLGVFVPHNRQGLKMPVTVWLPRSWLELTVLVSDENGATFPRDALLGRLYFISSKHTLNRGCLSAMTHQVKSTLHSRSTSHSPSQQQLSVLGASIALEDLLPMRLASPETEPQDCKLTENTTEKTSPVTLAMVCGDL

Molecule	tested on	assay	system	setting	quantity	result
B1 (IgG 15884 anti-Nsp12 IgG)	Nsp12 (SARS-CoV-2, UniProt P0DTD1)	BLI	antibody	read off a plot	Kd	12 nM
B2 (hisG)	Nc1ncnc2c1ncn2[C@@H]1O[C@H](COP(=O)(O)OP(=O)(O)OP(=O)(O)O)[C@@H](O)[C@H]1O	steady-state kinetics		pH 8.5, 25 °C, apparent, together with: PRPP	Km	263 µM
AGGGGCUUUUUCUUUGCCCAGUUCCUUGCCUGCUCCUCCUGGGCCGGGCCUUUCCUGUUGCCGGCUCGCCUUGCUGCUCCCUCCCCUACCGUGACCGGCACCCGGCGAGCUUGGCGGGCCCGCCCUUUUGGCUCCGGACGCGUGGAAUCAUAUUUCCCGAAUCUGUUAAUGAGACCGUUCGAUUCCGCCCCCAACAAGGUUCUGGAACGCUGGCAGGAAAACAUUCAUGGAUUCAGGUU (structured RNA)	hfq full length assumed (Pseudomonas aeruginosa, UniProt Q9HUM0)	EMSA	folded RNA		binding	no binding
CTGTTGGGGTGAGTACTCCCTCTCAAAAGCGGGCA (dsDNA)	L4-22K residues 1-196 (Human adenovirus 5, UniProt Q2KS03)	EMSA	double-stranded DNA, one strand shown		binding	binds
CGGGCCCGUCCCACCGCCCUGGAGCACCAUCCGGGGCCGUGGGCCGGGCACCGGG (structured RNA)	UL84 1-586 (Human cytomegalovirus, UniProt P16727)	pull-down immunoblot	folded RNA		binding	no binding
GCCCGGAUAGCUCAGUCGGUAGAGCAUCAGACUUUUAAUCUGAGGGUCCAGGGUUCAAGUCCCUGUUCGGGCGCCA (tRNA (Homo sapiens); unmodified)	gag nucleocapsid 378-432 (HIV-1, UniProt P12493)	fluorescence anisotropy	folded RNA		binding	binds

Some of these lines once more:
Molecule	tested on	assay	system	setting	quantity	result
B2 (hisG)	Nc1ncnc2c1ncn2[C@@H]1O[C@H](COP(=O)(O)OP(=O)(O)OP(=O)(O)O)[C@@H](O)[C@H]1O	steady-state kinetics		pH 8.5, 25 °C, apparent, together with: PRPP	Km	263 µM
